# Results pooled from the literature.
# Parts stem from different laboratories: compare values within a part only.

# Set 1
# Target: Histone acetyltransferase KAT6A, winged helix 2, GST fusion (KAT6A, Homo sapiens, UniProt Q92794, residues 85-181)
# Technique: protein binding microarray
# Form: double-stranded DNA, one strand shown
# Medium: in vitro
# Tested at: not given
# Notes: 8-mer, flanks averaged, mean of 2 arrays, mostly near background
# Reference: not given
# Reading: higher = stronger binding
# Residues (chain): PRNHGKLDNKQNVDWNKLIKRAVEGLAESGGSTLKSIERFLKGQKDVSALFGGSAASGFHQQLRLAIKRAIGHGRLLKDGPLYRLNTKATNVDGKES
Sequence,E-score
CAAGGAGA,-0.162
CTAGGGTC,-0.102
CGCGCTAA,0.0545
AATCACTC,-0.0522
ACAAACCT,-0.103
TACGATAA,-0.0509
AAAACGGT,-0.102
AGTCAGCC,-0.0413
ACGTATCC,-0.243
ATTCTAGC,0.0659
CAACGAGG,0.109
CTCCGTAC,-0.18
CGAAGCAA,0.198

# Set 2
# Target: PABPC1L2, full length, GST fusion (mouse, UniProt A0ABA7IW68)
# Technique: RNAcompete
# Form: RNA
# Medium: in vitro
# Tested at: 20 nM
# Notes: 7-mer, probes averaged, single round
# Reference: mean of 7-mers
# Reading: higher = stronger binding
# Target sequence (chain): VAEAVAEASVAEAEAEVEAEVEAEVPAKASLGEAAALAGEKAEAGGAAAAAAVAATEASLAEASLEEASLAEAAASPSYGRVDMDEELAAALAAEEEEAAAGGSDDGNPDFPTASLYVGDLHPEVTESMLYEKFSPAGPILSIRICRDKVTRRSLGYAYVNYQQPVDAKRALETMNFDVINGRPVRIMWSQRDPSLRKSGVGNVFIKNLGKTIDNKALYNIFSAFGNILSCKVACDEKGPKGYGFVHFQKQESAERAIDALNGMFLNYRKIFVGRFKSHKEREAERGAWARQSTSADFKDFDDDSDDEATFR
Sequence,7-mer Z-score
UCUGGUG,-0.224
UUUCACG,-0.427
AGUAUGC,-0.153
UGAGAUA,-0.0319
CACUUCU,-0.249
CGAUGUG,-0.226
CCUGGGU,-0.0391
UUUCGCU,-0.498

# Set 3
# Target: RNA binding protein fox-1 homolog 2, RRM domain, GST-SBP tag (RBFOX2, Homo sapiens, UniProt O43251-10, residues 100-194)
# Technique: RNA Bind-n-Seq
# Form: RNA
# Medium: in vitro
# Tested at: 365 nM
# Notes: natural RNA segment, single round, ends assumed
# Reference: no-protein control
# Reading: higher = stronger binding
# Construct (chain): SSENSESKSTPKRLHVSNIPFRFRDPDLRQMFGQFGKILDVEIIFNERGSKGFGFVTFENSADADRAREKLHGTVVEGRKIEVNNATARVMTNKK
Sequence,RBNS enrichment (R)
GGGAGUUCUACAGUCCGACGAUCAAGACUAGACCAAUUGUCAUGCUUGACACAACUGCUGUGGCUGGUUGGUGCUUUGUUUAUGGUAGUAGUUUUUCUGUAACACAGAAUAUAGGAUAAGAAAUAAGAAUAAAUGGAAUUCUCGGGUGCCAA,0.511
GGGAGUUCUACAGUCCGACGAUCAAGAAACGUUAGUUAGUGGGGCAAUACAUUCAUGCAAGGUUGGUGGCGCCUUAGAGAUGGGCGAGUGUCUGAGAAGACCUGCUCGGAGCACACUGCACUCUUUGAUCCUCUGGAAUUCUCGGGUGCCAA,1.89
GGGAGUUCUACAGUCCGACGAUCACAGGAUGGAAGGAAUCAAAGCACUUUAUCGAGCUUGUGGCUGAGCAUUGCAGCCUAUGUGCAAACCCAGAGGAAAAGUAUCUCUGUCAAGACAGCUCCAGUAUCAUGCAUGGAAUUCUCGGGUGCCAA,3.96
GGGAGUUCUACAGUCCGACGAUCCUCUCCAGGUAUGCAGCUCAUAUGCUUGUGUCUGGACUUCCAUUUUCUUACUUCAGGGAGGGGACAGUGGAAAUGCUGCAGGUCUCUGUCUUGGACACUGCAGAGUGCUGUGGAAUUCUCGGGUGCCAA,0.858
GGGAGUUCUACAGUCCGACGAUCAUGACAGGACCUGGAAUGUACUGGCUGGGGUAGGCCUCAGUGAGUCGGCCGGUCAGGGCCCGCAGCCUCGCCCCAUCCACUCCGGUGCCUCCAUUUAGCUGGCCAAUCAGUGGAAUUCUCGGGUGCCAA,0.36
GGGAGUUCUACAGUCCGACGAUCGUGGAGUCAUGGUGUUAGUGUUCUGCCUUUUUAUGUUCUAAGACUACUUGUUAGAGGACGGAAGAUUUGCUACAGUGGUCUAGAGUUAAAAUGUGCUCUUUAGUUGCCCAUGGAAUUCUCGGGUGCCAA,0.422
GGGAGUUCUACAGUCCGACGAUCUGCUUCCCUUGACUGGGGAGACUGGAAGUCCUUACACUGGAGUUGCUGGGCCAACUGGUCACCCUCACACAGCACAGAGGGGGCUAGAGGGAACAGCCUCCUGGGUCUUCUGGAAUUCUCGGGUGCCAA,0.362
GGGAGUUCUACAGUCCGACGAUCCCUCACCUCUGGACUGGCUAGAGUCCUCACUCCCAGUCCAAAUGUCCUCCAGAAGCCUCUGGCUAGAGGCCAGCCCCACCCAGGAGGGAGGGGGCUAUAGCUACAGGAAGUGGAAUUCUCGGGUGCCAA,0.304

# Other studies, line by line
Molecule,target,test,system,conditions,scale,quantity,value
"PhoQ, residues 284 288 289 292 302 303 GTAMQF","PhoP, residues 12 14 15 18 19 NHTVL (Escherichia coli, UniProt P23836)","Sort-seq, item: YFP reporter",E. coli,"PhoQ-PhoP variant library, together with: 10 µM Mg2+","reference: high Mg2+ state, higher = stronger signaling",fold induction,1.32

# Excerpt of the above (set 1):
Sequence,E-score
AATCACTC,-0.0522
ACAAACCT,-0.103
